Assay results collected from several papers.
Parts stem from different laboratories: compare values within a part only.

Series 1 — technique: RNA Bind-n-Seq; form: RNA; medium: in vitro; tested at: 365 nM; relative to: no-protein control; direction: higher = stronger binding; endpoint: RBNS enrichment (R)
Target: RNA binding protein fox-1 homolog 2, RRM domain, GST-SBP tag (RBFOX2, Homo sapiens, UniProt O43251-10, residues 100-194)
Setting: natural RNA segment, single round, ends assumed
All sequences stand within: GGGAGUUCUACAGUCCGACGAUC … UGGAAUUCUCGGGUGCCAA
Residues (chain): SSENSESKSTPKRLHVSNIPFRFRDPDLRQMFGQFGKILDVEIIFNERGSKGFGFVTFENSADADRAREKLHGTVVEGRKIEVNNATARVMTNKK
Oligonucleotide = AGAAGACUAUGAAAGGAAGCUCAACUCCAGUAAAGAACUAGAACAGUGUAUAACAUGAAGAUAACAUUUUGUCUUUGACCACUGUCUUUUGAAUGGGCCCACAGUGUUUA; result = 0.432
Oligonucleotide = UAAGUAGAUAAGCAGACGAUAGUUAUCUGUUCUUUUGACUUAAUCUCAUUUGGUUUGAUUUUCCCUCUACUAAGGCUUUCCUACCUUCUUCAGGCUGCCUAAGACAUGUA; result = 0.28
Oligonucleotide = GAACUUUUAAGAGGAUAGAAUACAUGGAAACGCAAAUGAGUAUUUCGGAGCAUGAAGACCCUGGAGUUCAAAAAACUCUUGAUAUGACCUGUUAUUACCAUUAGCAUUCU; result = 4.26
Oligonucleotide = GGACACACUGCAGGAGUUCCUGAAGCUGGCCUGAGUCAGGAUGGCCACCGAUCCUAUCCAGCUAGCUCUUCACCAGGCCUUGUAACCAACUCCUUGUCGUCCUAAUCUGC; result = 0.296
Oligonucleotide = CCUACUUCUACCCUCACUGGCCUCCAGUGGGAUUCACUCCUGCCCUGCCCCCACCUUCCCAGUCCCACAGGCCACCCCUGGCUUGGGCUGGGUUCUGUGAAGUUACGUAU; result = 0.346

Series 2 — technique: protein binding microarray; form: double-stranded DNA, one strand shown; medium: in vitro; tested at: not given; relative to: not given; direction: higher = stronger binding; endpoint: E-score
Target: Histone acetyltransferase KAT6A, winged helix 2, GST fusion (KAT6A, Homo sapiens, UniProt Q92794, residues 85-181)
Setting: 8-mer, flanks averaged, mean of 2 arrays, mostly near background
Residues (chain): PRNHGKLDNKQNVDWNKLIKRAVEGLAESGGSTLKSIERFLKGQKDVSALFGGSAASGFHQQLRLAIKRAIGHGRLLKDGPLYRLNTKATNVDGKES
Oligonucleotide = CTGCCTAA; result = 0.0293
Oligonucleotide = CAGCCACA; result = 0.15
Oligonucleotide = CCGACCTA; result = 0.0613
Oligonucleotide = TCGTGAGA; result = 0.0493
Oligonucleotide = ATGTTCTG; result = -0.0224
Oligonucleotide = GAGGTAGC; result = -0.0755
Oligonucleotide = CGGAGCTA; result = -0.0295
Oligonucleotide = GCTGAAAC; result = 0.163

Series 3 — technique: protein-binding microarray; form: double-stranded DNA, one strand shown; medium: in vitro; tested at: not given; direction: higher = stronger binding; endpoint: E-score
Target: Transcriptional repressor CTCF (CTCF, Homo sapiens, UniProt P49711, residues 1-727, full length assumed)
UniProt P49711, sequence (whole entry, looked up): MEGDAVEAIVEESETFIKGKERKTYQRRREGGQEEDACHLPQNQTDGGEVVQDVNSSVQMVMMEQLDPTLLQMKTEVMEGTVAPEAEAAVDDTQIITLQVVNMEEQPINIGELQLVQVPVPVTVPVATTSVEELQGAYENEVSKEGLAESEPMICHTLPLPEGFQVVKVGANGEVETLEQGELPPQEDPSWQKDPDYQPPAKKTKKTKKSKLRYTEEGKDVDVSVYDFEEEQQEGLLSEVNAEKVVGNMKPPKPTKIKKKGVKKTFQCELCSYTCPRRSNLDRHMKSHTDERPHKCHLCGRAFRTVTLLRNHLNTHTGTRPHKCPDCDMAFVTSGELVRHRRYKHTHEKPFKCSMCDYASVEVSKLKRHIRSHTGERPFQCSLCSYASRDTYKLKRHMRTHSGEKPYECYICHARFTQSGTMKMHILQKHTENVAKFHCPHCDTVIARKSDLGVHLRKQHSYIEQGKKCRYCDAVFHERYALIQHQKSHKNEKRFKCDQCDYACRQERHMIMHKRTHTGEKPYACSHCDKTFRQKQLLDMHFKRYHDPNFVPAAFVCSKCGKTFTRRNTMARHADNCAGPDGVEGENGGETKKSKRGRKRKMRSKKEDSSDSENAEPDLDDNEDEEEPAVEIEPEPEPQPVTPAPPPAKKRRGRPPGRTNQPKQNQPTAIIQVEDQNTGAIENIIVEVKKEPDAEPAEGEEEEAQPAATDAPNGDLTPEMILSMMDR
Setting: k-mer, scored over probes, only values ≥0.25
Oligonucleotide = ATAAATTA; result = 0.411
Oligonucleotide = ATTATTTG; result = 0.389
Oligonucleotide = CGCCACAA; result = 0.257
Oligonucleotide = ATAATTTG; result = 0.292
Oligonucleotide = ATTACATG; result = 0.306
Oligonucleotide = ACTAAATA; result = 0.253

Further values, each from its own experiment
Substance = PhoQ, residues 284 288 289 292 302 303 SNGLAW; target = PhoP, residues 12 14 15 18 19 VQALL (Escherichia coli, UniProt P23836); test = Sort-seq, item: YFP reporter; system = E. coli; conditions = PhoQ-PhoP variant library, together with: 10 µM Mg2+; scale = relative to: high Mg2+ state, higher = stronger signaling; endpoint = fold induction; result = 7.39

For quick reference, copied from above (series 2):
Oligonucleotide = CCGACCTA; result = 0.0613
Oligonucleotide = TCGTGAGA; result = 0.0493
Oligonucleotide = ATGTTCTG; result = -0.0224
